Earlier results as cited in several papers.
Compare with care: the assays were run in different laboratories. ± marks the error that the study gave.

SMILES | test | system | setting | scale | quantity | result
COCCOCCOCCOCCC(=O)NCc1cc(CNC(=O)CCOCCOCCOCCOC)cc(-c2cc3cc4nc(c(OC)c5[nH]c(cc6nc(cc2[nH]3)CC6(C)C)cc5-c2cc(CNC(=O)CCOCCOCCOCCOC)cc(CNC(=O)CCOCCOCCOCCOC)c2)CC4(C)C)c1 | – | DMF | room temperature | – | fluorescence quantum yield | 0.2
CCCCCCc1ccc(Oc2ccccc2C#N)c(O)c1 | – | mouse | 40 mg/kg | – | absorption rate constant | 0.77 h⁻¹
Cc1ccccc1-c1cc(N2CCNCC2)ncc1N(C)C(=O)C(C)(C)c1cc(C(F)(F)F)cc(C(F)(F)F)c1 | – | healthy volunteers, plasma | oral, 450 mg, single dose, netupitant alone | – | Tmax | 24.2 h
C=C[C@@H]1C[C@]1(NC(=O)[C@@H]1C[C@@H](Oc2cc(-c3ccccc3)nc3cc(OC)ccc23)CN1C(=O)[C@@H](NC(=O)OC(C)(C)C)C(C)(C)C)C(=O)NS(=O)(=O)C1CC1 | – | dog | intravenous, dose not given | – | clearance | 16 mL/min/kg
O=c1c2nc[nH]c2nc2ncccn12 | oxidation, substrate | rat liver cytosol | – | – | Km | 105 µM
O=S(=O)(c1ccccc1)N1CCCCC1 | – | sodium borate buffer | 24 h, pH 10 | – | recovery | 100%
CN1CCN(c2cc(-c3ccccc3CO)c(N(C)C(=O)C(C)(C)c3cc(C(F)(F)F)cc(C(F)(F)F)c3)cn2)CC1 | – | systemic circulation | – | relative to: metabolite over netupitant | exposure ratio | 33%
CSCCN(CCSC)CCc1ccccn1 | – | – | mixed-mode protonation constant | – | log KH1 | 7.33
CN(C)c1cccc2c(S(=O)(=O)NCCNC(=O)CCCC[C@@H]3SC[C@@H]4NC(=O)N[C@@H]43)cccc12 | – | – | – | – | fluorescence quantum yield | 0.06
Oc1ccc2ccccc2c1/N=N/c1ccccc1 | – | – | phenolic hydroxyl | – | pKa | 11.7
O=P(O)(O)CN1CCN(CP(=O)(O)O)CCN(CP(=O)(O)O)CCN(CP(=O)(O)O)CC1.[153Sm+3] | – | bone | 4 h | – | tissue uptake | 3.94 %ID/g
Cc1nc2n(c(=O)c1CCN1CCC(c3noc4cc(F)ccc34)CC1)CCCC2O (stereo not drawn) | – | mouse | – | – | Kp,brain | 0.06
CN(C)c1ccc(/C=C2\CCc3ccccc3C2=O)cc1 | – | – | – | – | absorption maximum | 406 nm
Cc1ccccc1-c1cc(N2CC[N+](C)([O-])CC2)ncc1N(C)C(=O)C(C)(C)c1cc(C(F)(F)F)cc(C(F)(F)F)c1 | – | healthy volunteers, plasma | oral, 450 mg, single dose, together with: palonosetron 0.75 mg | – | AUC(0-inf) | 2760 ng·h/mL
Oc1cccc(-c2cccc(O)n2)n1.[Cl-].[Cl-].[Ru+2].c1cnc2c(c1)ccc1cccnc12.c1cnc2c(c1)ccc1cccnc12 | – | – | – | – | pKa2 | 6.8
CN1CCC(C)(C)c2cc3c(-c4ccc(C(=O)N5CCCCC5)s4)c4ccc(=[N+](C)C)cc-4sc3cc21 | – | methanol | – | – | absorption maximum | 598 nm
O=C([O-])CN1CCN(CC(=O)[O-])CCN(CC(=O)c2ccccc2)CCN(CC(=O)[O-])CC1.[Eu+3] | – | – | excitation at 265 nm | – | Eu3+ luminescence quantum yield | 0.058
C=C[C@@H]1C[C@]1(NC(=O)[C@@H]1C[C@@H](Oc2ncc(OC)c3ccccc23)CN1C(=O)[C@@H](NC(=O)OC(C)(C)C)C(C)(C)C)C(=O)NS(=O)(=O)C1CC1 | – | rat | 30 mg/kg | – | clearance | 9.8 mL/min/kg
O=C([O-])c1cccc(CNCCNCc2cccc(C(=O)[O-])n2)n1.[64Cu+2] | refers to: 64Cu | mouse serum | 24 h, ambient | – | transchelation to serum proteins | 23%
OC[C@@H]1[C@@H](O)[C@H](O)[C@@H](O)c2nccn21 | – | – | – | – | pKa | 6.1
O=C(CCCCCCC(=O)Nc1ccccc1)NO[C@@H]1O[C@H](C(=O)O)[C@@H](O)[C@H](O)[C@H]1O | – | human | – | relative to: vorinostat | steady-state serum exposure | 4 fold
C=C[C@@H]1C[C@]1(NC(=O)[C@@H]1C[C@@H](Oc2nccc3c(OC)cccc23)CN1C(=O)[C@@H](NC(=O)OC(C)(C)C)C(C)(C)C)C(=O)NS(=O)(=O)C1CC1 | – | isolated perfused rabbit heart | 10 µM, time not given | – | sinus node recovery time change | 17%
CN(C)c1ccc(-c2cc3cc(I)ccc3o2)cn1 | – | intestine | 60 min | – | tissue uptake | 50 ID%/g
CC[C@H](C)[C@H](NC(=O)[C@H](Cc1ccccc1)NC(=O)[C@H](CCC(=O)O)NC(=O)[C@H](CCCCN)NC(=O)[C@H](C)NC(=O)[C@H](C)NC(=O)[C@H](CCC(N)=O)NC(=O)CNC(=O)[C@H](CCC(=O)O)NC(=O)[C@H](CC(C)C)NC(=O)[C@H](Cc1ccc(O)cc1)NC(=O)[C@H](CO)NC(=O)[C@H](CO)NC(=O)[C@@H](NC(=O)[C@H](CC(=O)O)NC(=O)[C@H](CO)NC(=O)[C@@H](NC(=O)[C@H](Cc1ccccc1)NC(=O)[C@@H](NC(=O)CNC(=O)[C@H](CCC(=O)O)NC(=O)[C@H](C)NC(=O)[C@@H](N)Cc1c[nH]cn1)[C@@H](C)O)[C@@H](C)O)C(C)C)C(=O)N[C@@H](C)C(=O)N[C@@H](Cc1c[nH]c2ccccc12)C(=O)N[C@@H](CC(C)C)C(=O)N[C@H](C(=O)N[C@@H](CCCCN)C(=O)NCC(=O)N[C@@H](CCCN=C(N)N)C(=O)NCC(=O)O)C(C)C | – | – | – | – | serum half-life | ~2 min
CC(C)OC(=O)[C@H](CO)NCc1cc(Cl)c(OCc2cccc(-c3ccccc3)c2Br)cc1OCc1cccnc1 | – | dog liver S9 | 40 min | – | transformation | 100%
Cc1ccc2c(c1)nc(CCN1C(=O)c3cccc4cccc(c34)C1=O)n2-c1ccncc1 | – | Sprague-Dawley rat | intravenous, 2.5 mg/kg | – | clearance | 39 ± 7.83 mL/min/kg
O=C([O-])CN1CCN(CC(=O)[O-])CCN(CC(=O)NCC2CCC(C(=O)NC(Cc3ccc4ccccc4c3)C(=O)NCCCCC(NC(=O)NC(CCC(=O)O)C(=O)O)C(=O)O)CC2)CCN(CC(=O)[O-])CC1.[68Ga+3] (stereo not drawn) | – | human, liver | literature data | – | absorbed dose | 0.029 mSv/MBq
C=CC1CC1(NC(=O)C1CC(Oc2nccc3cc(OC)ccc23)CN1C(=O)C(NC(=O)OC(C)(C)C)C(C)C)C(=O)NS(=O)(=O)C1CC1 (stereo not drawn) | – | isolated perfused rabbit heart | 10 µM, time not given | – | sinus node recovery time change | 144%
CC(C)Sc1cccc(O)c(=O)c1O | – | – | – | – | pKa2 | > 12
C[C@](C#N)(COc1cc(C#N)ccc1C(F)(F)F)NC(=O)c1ccc(S(=O)(=O)C(F)(F)F)cc1 | – | sheep, plasma | concentration not given | relative to: compound over monepantel | AUC ratio | ~12
